Assay results from different studies.
Parts stem from different laboratories: compare values within a part only.

Set 1
Target: Histone acetyltransferase KAT6A, winged helix 1, GST fusion (KAT6A, Homo sapiens, UniProt Q92794, residues 1-85)
Technique: protein binding microarray
Form: double-stranded DNA, one strand shown
Sample: in vitro
Tested at: not given
Setting: 8-mer, flanks averaged, mean of 2 arrays, mostly near background
Baseline: not given
Reading: higher = stronger binding
Measurement: E-score
Residues (chain): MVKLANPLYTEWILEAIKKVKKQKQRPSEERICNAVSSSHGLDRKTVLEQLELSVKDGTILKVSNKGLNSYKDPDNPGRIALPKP
CTTCACCC: 0.117
AGATGCGA: 0.12
GTGCCTGA: -0.115
TCGTACCA: -0.0536
ACCCTTTG: -0.0453
CCTCGATA: 0.0558
CAAGGATG: -0.216
ATTCTGGG: -0.201

Set 2
Target: Centromere-binding protein 1, full length, His-tagged (CBF1, Saccharomyces cerevisiae, UniProt P17106, residues 1-351)
Sequence of UniProt P17106 (whole entry, looked up): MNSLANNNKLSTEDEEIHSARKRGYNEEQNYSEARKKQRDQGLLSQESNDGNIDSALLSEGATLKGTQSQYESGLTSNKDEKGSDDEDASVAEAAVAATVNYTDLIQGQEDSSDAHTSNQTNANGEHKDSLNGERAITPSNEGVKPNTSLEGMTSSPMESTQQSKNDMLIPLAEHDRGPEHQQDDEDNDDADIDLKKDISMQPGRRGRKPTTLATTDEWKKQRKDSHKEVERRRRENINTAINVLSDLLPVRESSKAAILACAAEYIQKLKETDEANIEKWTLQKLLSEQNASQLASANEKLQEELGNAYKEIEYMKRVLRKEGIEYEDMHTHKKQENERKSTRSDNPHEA
Technique: competition protein-binding microarray
Form: double-stranded DNA, one strand shown
Sample: in vitro
Tested at: 2 µM
Setting: whole 60-bp probe, lowest competitor level
Together with: Pho4 competitor, 0.05 µM
Reading: higher = stronger binding
Measurement: fluorescence intensity
CGTCCTAGCGATTGATATGTGGGTGCCATGAGGAAGGTCTTGATTCGCTTGACGCTGCTG: 81.9 a.u.
TGCGCAACAACTTGGAGTGTGGGTGTATGTCTAGAAGTCTTGATTCGCTTGACGCTGCTG: 71.3 a.u.
TTGGGTGATGTTTTGCATGTGTGCTGCCCAAGTTGAGTCTTGATTCGCTTGACGCTGCTG: 92.5 a.u.
CCTTTACTTAATACACAGGGGCAAGCCAATGTTCAAGTCTTGATTCGCTTGACGCTGCTG: 79.2 a.u.

Set 3
Target: Ras GTPase-activating protein-binding protein 1, full length (G3BP1, Homo sapiens, UniProt Q13283)
Sequence of UniProt Q13283 (whole entry, looked up): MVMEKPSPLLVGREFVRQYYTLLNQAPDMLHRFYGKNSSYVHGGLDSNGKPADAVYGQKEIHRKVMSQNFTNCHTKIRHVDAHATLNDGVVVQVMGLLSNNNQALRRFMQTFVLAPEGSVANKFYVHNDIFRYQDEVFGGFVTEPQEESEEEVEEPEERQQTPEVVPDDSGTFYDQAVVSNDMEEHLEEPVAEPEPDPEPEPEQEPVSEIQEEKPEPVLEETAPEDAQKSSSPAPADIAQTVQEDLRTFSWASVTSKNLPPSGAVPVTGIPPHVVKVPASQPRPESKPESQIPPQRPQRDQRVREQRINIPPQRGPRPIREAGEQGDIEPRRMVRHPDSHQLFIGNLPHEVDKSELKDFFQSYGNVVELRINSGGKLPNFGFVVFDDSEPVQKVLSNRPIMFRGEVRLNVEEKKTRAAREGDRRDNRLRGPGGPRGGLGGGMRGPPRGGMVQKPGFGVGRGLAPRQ
Technique: RNA Bind-n-Seq
Form: RNA
Sample: in vitro
Tested at: 200 nM
Setting: whole 134-nt RNA, ends assumed
Together with: 150 mM KCl
Baseline: input library
Reading: higher = stronger binding
Measurement: log2 enrichment
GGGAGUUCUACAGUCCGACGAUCCACAGACAACACGCACCCACACAGACACAGAGGGCAGGGGUUGGGAUGGGGACAGGGUGCACAGCAGGGCGGGGUAGGACCCCAGCCCCUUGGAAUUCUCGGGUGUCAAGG: 1.87
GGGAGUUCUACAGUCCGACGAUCAAGUCCUGUGCUACACAUCGUAUGUACCGAAUCGGUUUUUUUGGUGGAAAAAAAGGAAAGUAUUAUGUUACGCCGUUCGGAUCUGCACUUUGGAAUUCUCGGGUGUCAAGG: -1.29
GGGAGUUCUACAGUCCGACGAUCCAAGUCCUGUGCUACACAUCGUAUGUACCGAAUCGGGGCCCGGGCCCGGGGCCCGGAAAGUAUUAUGUUACGCCGUUCGGAUCUGCACUUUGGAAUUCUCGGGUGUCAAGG: -0.8
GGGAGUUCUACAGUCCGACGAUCCCUCAAGUCCUGUGCUACACAUCGUAUGUACCGAAUCGGGCGGCGGGGCGGGGAAAGUAUUAUGUUACGCCGUUCGGAUCUGCACUUCCAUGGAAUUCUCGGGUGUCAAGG: 1.04
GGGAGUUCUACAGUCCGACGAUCUGGGAGGUGGAUUUUGUUUAUUUUUUUAGCUCAUUUCCAGGGGUGGGACUUUUUUUUUAAUAUGUGUCAUGAAUAAAGUUGUUUUUGAAAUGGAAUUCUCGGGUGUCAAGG: 0.168
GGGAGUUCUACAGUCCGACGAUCUCCUGUGCUACACAUCGUAUGUACCGAAUCGGGGUUUUUGGGGUGGGGUUUUUUUGGGGAAAGUAUUAUGUUACGCCGUUCGGAUCUGCAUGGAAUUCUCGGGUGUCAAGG: 0.632

Mixed results
PhoQ, residues 284 288 289 292 302 303 SIHLQL — fold induction (PhoP, residues 12 14 15 18 19 NFCKL (Escherichia coli, UniProt P23836); Sort-seq, refers to: YFP reporter; E. coli; PhoQ-PhoP variant library, together with: 10 µM Mg2+; baseline: high Mg2+ state, higher = stronger signaling): 13.2

For quick reference, copied from above (set 2):
TGCGCAACAACTTGGAGTGTGGGTGTATGTCTAGAAGTCTTGATTCGCTTGACGCTGCTG: 71.3 a.u.
TTGGGTGATGTTTTGCATGTGTGCTGCCCAAGTTGAGTCTTGATTCGCTTGACGCTGCTG: 92.5 a.u.
CCTTTACTTAATACACAGGGGCAAGCCAATGTTCAAGTCTTGATTCGCTTGACGCTGCTG: 79.2 a.u.
